Results collected from several papers.
Parts stem from different laboratories: compare values within a part only.

Set 1
Target: Eukaryotic initiation factor 4A-I (EIF4A1, Homo sapiens, UniProt P60842, residues 1-406, full length assumed)
UniProt P60842, sequence (whole entry, looked up): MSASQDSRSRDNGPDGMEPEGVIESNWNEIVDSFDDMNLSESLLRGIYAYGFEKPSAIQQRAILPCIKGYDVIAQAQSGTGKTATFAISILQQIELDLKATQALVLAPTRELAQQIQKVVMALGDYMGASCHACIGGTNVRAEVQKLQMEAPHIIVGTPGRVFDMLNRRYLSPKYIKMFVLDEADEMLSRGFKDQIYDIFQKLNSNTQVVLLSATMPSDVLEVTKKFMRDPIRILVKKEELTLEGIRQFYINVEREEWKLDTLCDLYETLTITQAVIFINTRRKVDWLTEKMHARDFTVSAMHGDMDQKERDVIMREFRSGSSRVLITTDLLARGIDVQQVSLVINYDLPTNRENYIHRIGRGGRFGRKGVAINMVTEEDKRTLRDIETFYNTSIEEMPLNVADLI
Method: RNA Bind-n-Seq
Molecule type: RNA
Medium: in vitro
Concentration: 15 pmol
Setting: 4-mer, random 30-nt RNA, single round
Added: 3 µM DMDA-PatA, 2 mM AMP-PNP
Relative to: input library
Direction: higher = stronger binding
`UCUA` has a 4-mer enrichment of 0.997 fold.
`CUCG` has a 4-mer enrichment of 0.824 fold.
With `GACG` the 4-mer enrichment was 0.689 fold.
For `UCUU`, the 4-mer enrichment was 0.954 fold.
For `CGUA`, the 4-mer enrichment was 1.53 fold.
For `AGGG`, the 4-mer enrichment was 1.07 fold.
The 4-mer enrichment of `GUCG` is reported as 1.04 fold.
For `UCAU`, the 4-mer enrichment was 0.612 fold.

Set 2
Target: Interferon regulatory factor 7, full length, phosphomimetic (IRF7, Homo sapiens, UniProt Q92985, residues 1-503, S101K/S471D/S472D/S475D/S476D/S477D/S483D/S484D/S487D)
Method: protein-binding microarray
Molecule type: double-stranded DNA, one strand shown
Medium: in vitro
Concentration: 250 nM
Setting: 60-bp whole probe
Added: salmon DNA 0.4 mg/ml
Relative to: random background probes
Direction: higher = stronger binding
Shared flanks, not repeated: GCCTAGCAC … GTCTTGATTCGCTTGACGCTGCTG
Residues (chain): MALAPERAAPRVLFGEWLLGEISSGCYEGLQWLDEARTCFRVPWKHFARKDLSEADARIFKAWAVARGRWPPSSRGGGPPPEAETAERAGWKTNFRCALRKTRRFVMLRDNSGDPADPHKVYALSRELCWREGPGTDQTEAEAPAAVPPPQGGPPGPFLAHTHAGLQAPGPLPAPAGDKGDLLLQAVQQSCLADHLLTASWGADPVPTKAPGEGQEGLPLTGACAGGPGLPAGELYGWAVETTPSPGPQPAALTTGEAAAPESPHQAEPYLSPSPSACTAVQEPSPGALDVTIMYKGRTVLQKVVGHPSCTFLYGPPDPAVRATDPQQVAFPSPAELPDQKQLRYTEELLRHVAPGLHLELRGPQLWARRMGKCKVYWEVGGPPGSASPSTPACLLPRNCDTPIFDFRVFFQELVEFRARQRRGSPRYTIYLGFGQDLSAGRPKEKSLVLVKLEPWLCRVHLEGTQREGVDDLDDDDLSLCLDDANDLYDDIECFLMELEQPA
`GACGGTATCGATTTCGGGACGTGCTAG` gave a log fluorescence of 3.39 z-score.
With `GAGGGTATCCTTTTCCTGACGTGCTAG` the log fluorescence was 0.607 z-score.
With `TTAGGTTTCGGGACTGGGTGAGTGCTA` the log fluorescence was 3.55 z-score.
The log fluorescence of `GACGGTATCGACATTCGGGACGTGCTA` is reported as 0.226 z-score.
With `TTACATATGTTTTTCATTTTGTGCTAG` the log fluorescence was 1.79 z-score.
`TTAGGTATCGTGACTGGGTTAGTGCTA` has a log fluorescence of -0.437 z-score.
For `TCATTTCTCTGTTCTAGACTGTGCTAG`, the log fluorescence was 2.81 z-score.
With `AATTTTTACTTTCTGAATGCGTGCTAG` the log fluorescence was 0.91 z-score.

Further values, each from its own experiment
Under cross-linked residues, `FAM98A (Homo sapiens, UniProt Q8NCA5)` is recorded as “K277 to K245” (RTCB (Homo sapiens, UniProt Q9Y3I0); cross-linking MS; cell fractions; added: DSSO).
`CN(C)C(=O)Cn1cc(-c2nc([C@@](C)(c3ccc(-c4cnc(N)nc4)cc3)C3CC3)no2)cn1` has a remaining binding of 94% (FLT3 (Homo sapiens, UniProt P36888, K663Q); cell-free assay, competition with immobilised ligand; 1 µM).
`GOLGB1 (Homo sapiens, UniProt Q14789)` — result for cross-linked residues: “K3002 to S556” (BEND3 (Homo sapiens, UniProt Q5T5X7); cross-linking MS; cell fractions; added: DSSO).
For `CCC[C@H]1NC(=O)CSC[C@@H](C(=O)OCC)N(C)C(=O)[C@H](CC(C)C)NC(=O)[C@H](C)N(C)C(=O)[C@H](CC(C)C)NC(=O)[C@H](C)N(C)C(=O)[C@H]2CCCN2C(=O)[C@H](CC(C)C)NC(=O)CN(CCC)C1=O`, the logD was 1.34 (hydrocarbon/water).
`IPO5 (Homo sapiens, UniProt O00410)` — result for cross-linked residues: “E725 to K26” (NOP14 (Homo sapiens, UniProt P78316); cross-linking MS; cell fractions; added: DMTMM).

Repeated from above (set 2):
The log fluorescence of `GACGGTATCGACATTCGGGACGTGCTA` is reported as 0.226 z-score.
With `GAGGGTATCCTTTTCCTGACGTGCTAG` the log fluorescence was 0.607 z-score.
